Measurements of several laboratories.
Each line is one published result; not all experiments were run side by side. ± marks the error that the study gave.
Organism: Salmonella enterica

The MIC of `N=C(N)NCCC[C@H](NC(=O)[C@H](CS)NC(=O)[C@H](Cc1ccc(O)cc1)NC(=O)[C@H](Cc1c[nH]c2ccccc12)NC(=O)[C@H](CCCNC(=N)N)NC(=O)[C@H](Cc1c[nH]c2ccccc12)NC(=O)[C@H](Cc1c[nH]cn1)NC(=O)CNC(=O)CN)C(=O)NCC(=O)NCC(=O)N[C@@H](CCCCN)C(N)=O` is reported as 1 µM.
`COc1ccc2c(c1CC=C(C)C)O[C@H]1c3cc4c(cc3OC[C@@]21O)OC(C)(C)C=C4` gave an MIC of 128 µg/mL (microbial growth; TYPHI).
For `Oc1c(Br)ccc2cccnc12`, the MIC was 71.4 µM (microbial growth, agar dilution; ATCC10708 CHOLERAESUIS).
For `N=C(N)NCCC[C@@H]1NC(=O)[C@H](CCCNC(=N)N)NC(=O)[C@H](CCCNC(=N)N)NC(=O)[C@H](CCCNC(=N)N)NC(=O)[C@H](Cc2c[nH]c3ccccc23)NC(=O)[C@H](CCCNC(=N)N)NC(=O)[C@H](CCCNC(=N)N)NC(=O)[C@@H](N)CCn2cc(nn2)C[C@@H](C(N)=O)NC1=O`, the MIC was 250 µg/mL (24 h, 37 °C).
For `COc1c(CC=C(C)C)c(O)cc2c1[C@@H]1Oc3c(ccc(O)c3CC=C(C)C)[C@@H]1CO2`, the MIC was 128 µg/mL (microbial growth; TYPHI).
`Cc1c2oc3c(C)ccc(C(=O)N[C@@H]4C(=O)N[C@H](C(C)C)C(=O)N5[C@@H](C)CC[C@H]5C(=O)N(C)CC(=O)N(C)[C@@H](C(C)C)C(=O)O[C@@H]4C)c3nc-2c(C(=O)N[C@@H]2C(=O)N[C@H](C(C)C)C(=O)N3CC(=O)C[C@H]3C(=O)N(C)CC(=O)N(C)[C@@H](C)C(=O)O[C@@H]2C)c(N)c1=O` has an MIC of > 9.57 µg/mL (broth microdilution; ATCC 10708; 16 to 48 h).
`CC(C)=CCc1cc2c(cc1O)OC[C@H]1c3ccc(O)c(CC=C(C)C)c3O[C@@H]21` gave an MIC of 128 µg/mL (microbial growth; TYPHI).
`CO[C@H]1O[C@H](COC(c2ccccc2)(c2ccccc2)c2ccccc2)[C@@H](OS(=O)(=O)c2ccccc2)[C@H](OS(=O)(=O)c2ccccc2)[C@H]1OS(=O)(=O)c1ccccc1` — result for “inhibition zone diameter”: 14 ± 0.5 mm (serovar Typhi; concentration not given).
The MIC of `Cc1c2oc3c(C)ccc(C(=O)N[C@@H]4C(=O)N[C@H](C(C)C)C(=O)N5[C@@H](C)CC[C@H]5C(=O)N(C)CC(=O)N(C)[C@@H](C(C)C)C(=O)O[C@@H]4C)c3nc-2c(C(=O)N[C@@H]2C(=O)N[C@H](C(C)C)C(=O)N3[C@@H](C)CC[C@H]3C(=O)N(C)CC(=O)N(C)[C@@H](C(C)C)C(=O)O[C@@H]2C)c(N)c1=O` is reported as > 9.36 µg/mL (broth microdilution; ATCC 10708; 16 to 48 h).
For `CC(=O)[O-].O.O.O.O.[Ni+2].[O-]c1ccc(Br)cc1C=NCCN1CCOCC1`, “inhibition zone diameter” read 28 mm (serovar Typhi; 20 µL of 100 µM per disc).
For `Cc1c2oc3c(C)ccc(C(=O)N[C@@H]4C(=O)N[C@H](C(C)C)C(=O)N5[C@H](C(=O)N(C)CC(=O)N(C)[C@@H](C(C)C)C(=O)O[C@@H]4C)[C@@H](O)C[C@@H]5C)c3nc-2c(C(=O)N[C@@H]2C(=O)N[C@H](C(C)C)C(=O)N3CC(=O)C[C@H]3C(=O)N(C)CC(=O)N(C)[C@@H](C)C(=O)O[C@@H]2CO)c(N)c1=O`, the MIC was > 9.33 µg/mL (broth microdilution; ATCC 10708; 16 to 48 h).
For `CC[C@H](C)[C@H](NC(=O)[C@H](CCCCN)NC(=O)[C@H](CCCCN)NC(=O)[C@H](CC(C)C)NC(=O)[C@H](CCCCN)NC(=O)[C@H](CCC(=O)O)NC(=O)[C@H](CCCCN)NC(=O)[C@@H](NC(=O)[C@H](CCCCN)NC(=O)[C@H](CC(N)=O)NC(=O)[C@H](CCCNC(=N)N)NC(=O)[C@H](Cc1ccccc1)NC(=O)[C@H](CCCCN)NC(=O)[C@H](CCCNC(=N)N)NC(=O)[C@H](CC(C)C)NC(=O)[C@H](CCCNC(=N)N)NC(=O)[C@H](CCCCN)NC(=O)[C@H](CCCNC(=N)N)NC(=O)[C@@H](N)CC(C)C)[C@@H](C)CC)C(=O)NCC(=O)N[C@@H](CCC(N)=O)C(=O)N[C@@H](CCCCN)C(=O)N[C@H](C(=O)N[C@@H](CCC(N)=O)C(=O)NCC(=O)N[C@@H](Cc1ccccc1)C(=O)N[C@H](C(=O)N1CCC[C@H]1C(=O)N[C@@H](CCCCN)C(=O)N[C@@H](CC(C)C)C(=O)O)C(C)C)[C@@H](C)CC`, the lethal concentration was 1.47 µM (inhibition zone; ATCC 14028; LB agar, overnight).
For `COc1ccc2c(c1CC=C(C)C)O[C@H]1c3cc(CC=C(C)C)c(O)cc3OC[C@@H]21`, the MIC was 128 µg/mL (microbial growth; TYPHI).
For `CC[C@H](C)[C@H](NC(=O)[C@H](CCCCN)NC(=O)[C@H](CCCCN)NC(=O)[C@H](CC(C)C)NC(=O)[C@H](CCCCN)NC(=O)[C@H](CCC(=O)O)NC(=O)[C@H](CCCCN)NC(=O)[C@@H](NC(=O)[C@H](CCCCN)NC(=O)[C@H](CC(N)=O)NC(=O)[C@H](CCCNC(=N)N)NC(=O)[C@H](Cc1ccccc1)NC(=O)[C@H](CCCCN)NC(=O)[C@H](CCCNC(=N)N)NC(=O)[C@H](CC(C)C)NC(=O)[C@H](CCCNC(=N)N)NC(=O)[C@H](CCCCN)NC(=O)[C@H](CCCNC(=N)N)NC(=O)[C@H](CC(C)C)NC(=O)[C@@H](N)CC(C)C)[C@@H](C)CC)C(=O)NCC(=O)N[C@@H](CCC(N)=O)C(=O)N[C@@H](CCCCN)C(=O)N[C@H](C(=O)N[C@@H](CCC(N)=O)C(=O)NCC(=O)N[C@@H](Cc1ccccc1)C(=O)N[C@H](C(=O)N1CCC[C@H]1C(=O)N[C@@H](CCCCN)C(=O)N[C@@H](CC(C)C)C(=O)N[C@H](C(=O)N1CCC[C@H]1C(=O)N[C@@H](CCCNC(=N)N)C(=O)N[C@H](C(=O)N[C@@H](CCC(=O)O)C(=O)N[C@@H](CO)C(=O)O)[C@@H](C)O)C(C)C)C(C)C)[C@@H](C)CC`, the lethal concentration was 2.65 µM (inhibition zone; ATCC 14028; LB agar, overnight).
`N#Cc1ccc2cccc(O)c2n1` has an MIC of > 1500 µM (microbial growth, agar dilution; ATCC10708 CHOLERAESUIS).

Repeated from above:
For `CC[C@H](C)[C@H](NC(=O)[C@H](CCCCN)NC(=O)[C@H](CCCCN)NC(=O)[C@H](CC(C)C)NC(=O)[C@H](CCCCN)NC(=O)[C@H](CCC(=O)O)NC(=O)[C@H](CCCCN)NC(=O)[C@@H](NC(=O)[C@H](CCCCN)NC(=O)[C@H](CC(N)=O)NC(=O)[C@H](CCCNC(=N)N)NC(=O)[C@H](Cc1ccccc1)NC(=O)[C@H](CCCCN)NC(=O)[C@H](CCCNC(=N)N)NC(=O)[C@H](CC(C)C)NC(=O)[C@H](CCCNC(=N)N)NC(=O)[C@H](CCCCN)NC(=O)[C@H](CCCNC(=N)N)NC(=O)[C@@H](N)CC(C)C)[C@@H](C)CC)C(=O)NCC(=O)N[C@@H](CCC(N)=O)C(=O)N[C@@H](CCCCN)C(=O)N[C@H](C(=O)N[C@@H](CCC(N)=O)C(=O)NCC(=O)N[C@@H](Cc1ccccc1)C(=O)N[C@H](C(=O)N1CCC[C@H]1C(=O)N[C@@H](CCCCN)C(=O)N[C@@H](CC(C)C)C(=O)O)C(C)C)[C@@H](C)CC`, the lethal concentration was 1.47 µM (inhibition zone; ATCC 14028; LB agar, overnight).
For `Oc1c(Br)ccc2cccnc12`, the MIC was 71.4 µM (microbial growth, agar dilution; ATCC10708 CHOLERAESUIS).
